Literature values as cited in several papers.
Protocols differ between the studies behind these lines. pEC50, pIC50: −log10 of the molar value.

Amino acid sequences for entries named in this document (tags omitted).
UniProt P29476, whole entry: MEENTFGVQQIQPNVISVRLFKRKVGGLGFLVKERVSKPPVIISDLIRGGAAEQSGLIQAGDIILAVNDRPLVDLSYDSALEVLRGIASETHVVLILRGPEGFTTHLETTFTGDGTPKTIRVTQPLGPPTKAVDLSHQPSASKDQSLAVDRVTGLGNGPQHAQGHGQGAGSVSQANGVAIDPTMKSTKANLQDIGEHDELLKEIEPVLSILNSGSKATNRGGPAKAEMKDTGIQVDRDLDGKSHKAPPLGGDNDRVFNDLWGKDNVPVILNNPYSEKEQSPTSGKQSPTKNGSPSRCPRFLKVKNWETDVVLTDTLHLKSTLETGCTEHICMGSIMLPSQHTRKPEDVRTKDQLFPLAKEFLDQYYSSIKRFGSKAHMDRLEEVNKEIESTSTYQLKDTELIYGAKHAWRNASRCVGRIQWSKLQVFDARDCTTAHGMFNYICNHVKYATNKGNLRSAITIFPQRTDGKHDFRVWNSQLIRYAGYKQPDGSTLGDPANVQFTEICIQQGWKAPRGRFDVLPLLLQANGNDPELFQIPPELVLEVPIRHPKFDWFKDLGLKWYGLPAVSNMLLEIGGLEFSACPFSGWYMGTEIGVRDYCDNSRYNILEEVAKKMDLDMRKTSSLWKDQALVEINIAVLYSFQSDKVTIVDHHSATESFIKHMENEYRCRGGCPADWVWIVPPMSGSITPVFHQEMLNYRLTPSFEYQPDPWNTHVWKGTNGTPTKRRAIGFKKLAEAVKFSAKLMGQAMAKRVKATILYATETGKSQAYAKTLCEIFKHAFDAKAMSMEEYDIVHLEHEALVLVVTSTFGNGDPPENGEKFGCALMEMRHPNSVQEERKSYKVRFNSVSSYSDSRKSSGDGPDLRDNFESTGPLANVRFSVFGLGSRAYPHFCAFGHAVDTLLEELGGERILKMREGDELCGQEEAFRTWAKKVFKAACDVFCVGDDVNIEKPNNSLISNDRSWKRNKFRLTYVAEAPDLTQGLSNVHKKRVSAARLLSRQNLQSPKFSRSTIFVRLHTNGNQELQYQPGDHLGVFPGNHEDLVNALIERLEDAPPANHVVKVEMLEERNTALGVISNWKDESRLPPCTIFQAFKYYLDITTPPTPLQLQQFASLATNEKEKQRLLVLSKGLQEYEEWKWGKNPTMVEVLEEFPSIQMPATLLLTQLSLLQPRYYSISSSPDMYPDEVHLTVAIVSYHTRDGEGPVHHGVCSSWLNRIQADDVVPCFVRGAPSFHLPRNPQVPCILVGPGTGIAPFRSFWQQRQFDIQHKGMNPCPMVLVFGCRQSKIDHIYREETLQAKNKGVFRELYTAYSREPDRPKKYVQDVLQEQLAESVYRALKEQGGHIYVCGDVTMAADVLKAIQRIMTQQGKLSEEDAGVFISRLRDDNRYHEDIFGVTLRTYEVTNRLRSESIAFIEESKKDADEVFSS
UniProt P00533, whole entry, looked up: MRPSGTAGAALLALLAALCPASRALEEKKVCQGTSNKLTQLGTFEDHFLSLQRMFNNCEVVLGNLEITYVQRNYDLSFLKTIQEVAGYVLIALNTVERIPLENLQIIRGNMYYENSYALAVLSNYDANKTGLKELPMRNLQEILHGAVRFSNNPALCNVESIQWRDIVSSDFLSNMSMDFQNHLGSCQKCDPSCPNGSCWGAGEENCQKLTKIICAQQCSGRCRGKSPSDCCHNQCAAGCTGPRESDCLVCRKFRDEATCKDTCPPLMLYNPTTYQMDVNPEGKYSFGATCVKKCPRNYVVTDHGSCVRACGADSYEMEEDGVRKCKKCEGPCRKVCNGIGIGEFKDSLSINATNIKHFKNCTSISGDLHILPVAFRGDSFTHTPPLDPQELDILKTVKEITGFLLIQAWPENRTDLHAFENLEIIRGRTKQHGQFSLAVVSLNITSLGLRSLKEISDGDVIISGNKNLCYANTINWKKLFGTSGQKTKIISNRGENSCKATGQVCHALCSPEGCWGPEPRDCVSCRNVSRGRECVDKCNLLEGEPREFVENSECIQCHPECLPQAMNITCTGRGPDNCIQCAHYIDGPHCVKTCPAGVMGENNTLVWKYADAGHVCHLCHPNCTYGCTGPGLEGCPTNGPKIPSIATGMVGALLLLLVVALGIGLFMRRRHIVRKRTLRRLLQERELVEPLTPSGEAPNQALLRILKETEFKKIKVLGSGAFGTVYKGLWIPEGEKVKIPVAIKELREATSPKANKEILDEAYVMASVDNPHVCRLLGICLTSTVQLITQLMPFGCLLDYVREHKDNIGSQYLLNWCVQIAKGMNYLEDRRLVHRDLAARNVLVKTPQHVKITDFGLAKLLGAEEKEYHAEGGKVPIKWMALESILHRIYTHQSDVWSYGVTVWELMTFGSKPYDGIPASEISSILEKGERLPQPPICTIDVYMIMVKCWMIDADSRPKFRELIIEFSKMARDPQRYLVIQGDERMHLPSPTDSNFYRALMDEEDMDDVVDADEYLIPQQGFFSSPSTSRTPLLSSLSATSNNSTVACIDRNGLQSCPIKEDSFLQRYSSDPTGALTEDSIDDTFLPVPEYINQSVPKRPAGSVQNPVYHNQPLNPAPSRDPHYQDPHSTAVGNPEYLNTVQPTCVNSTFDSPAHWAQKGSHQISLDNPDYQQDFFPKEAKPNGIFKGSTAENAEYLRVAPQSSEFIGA

Under “lowest effective dose”, `O=C(/C=C/c1nc2ccccc2[nH]1)c1c(-c2ccccc2)c2cc(Cl)ccc2[nH]c1=O` is recorded as 0.5 mg/kg (tumour growth inhibition; mouse melanoma xenograft).
The selectivity ratio of `Cc1cc(N)nc(CCc2cccc(C(O)Cc3cc(C)cc(N)n3)c2)c1` (stereo not shown) is reported as 58 (Nos1 (Rattus norvegicus, UniProt P29476); baseline: Ki murine iNOS over Ki nNOS).
Under tolerability, `Cc1ccc([C@H](CC(=O)O)NC(=O)Nc2c(O)c(C)cn(Cc3ccccc3Cl)c2=O)cc1` is recorded as “not toxic” (human clinical trials; oral).
For `C=CC(=O)Nc1cc(-c2nn(C3CCC(N4CCN(C(C)=O)CC4)CC3)c3ncnc(N)c23)ccc1Oc1ccccc1` (stereo not shown), the pEC50 was < 5.00 (HER3-dependent cancer cell lines; cell growth).
`COc1cc(N2CCC(N3CCN(C)CC3)CC2)ccc1Nc1ncc(Cl)c(Nc2ccccc2NS(C)(=O)=O)n1` has a pIC50 of 7.67 (EGFR (Homo sapiens, UniProt P00533); enzyme activity, inhibitor; added: ATP at Km).
`O=C(Nc1ccc(-c2nc3ccccc3s2)cc1)C1CCN(S(=O)(=O)c2ccccc2Cl)CC1`: “apparent intrinsic clearance” 76.5 µL/min/mg (human liver microsomes).
The pIC50 of `C/C(=N\Nc1nc2ccccc2n1C)c1ccccn1` is reported as 7.66 (MCF7).

For quick reference, copied from above:
The selectivity ratio of `Cc1cc(N)nc(CCc2cccc(C(O)Cc3cc(C)cc(N)n3)c2)c1` (stereo not shown) is reported as 58 (Nos1 (Rattus norvegicus, UniProt P29476); baseline: Ki murine iNOS over Ki nNOS).
